{"data": "Measured values from different studies", "note": "Protocols differ between the studies behind these lines. Values joined by “and” are separate records of one study, mostly repeats; a detail may differ. ± gives the spread as reported.", "UniProt P81908, sequence (whole entry, looked up)": "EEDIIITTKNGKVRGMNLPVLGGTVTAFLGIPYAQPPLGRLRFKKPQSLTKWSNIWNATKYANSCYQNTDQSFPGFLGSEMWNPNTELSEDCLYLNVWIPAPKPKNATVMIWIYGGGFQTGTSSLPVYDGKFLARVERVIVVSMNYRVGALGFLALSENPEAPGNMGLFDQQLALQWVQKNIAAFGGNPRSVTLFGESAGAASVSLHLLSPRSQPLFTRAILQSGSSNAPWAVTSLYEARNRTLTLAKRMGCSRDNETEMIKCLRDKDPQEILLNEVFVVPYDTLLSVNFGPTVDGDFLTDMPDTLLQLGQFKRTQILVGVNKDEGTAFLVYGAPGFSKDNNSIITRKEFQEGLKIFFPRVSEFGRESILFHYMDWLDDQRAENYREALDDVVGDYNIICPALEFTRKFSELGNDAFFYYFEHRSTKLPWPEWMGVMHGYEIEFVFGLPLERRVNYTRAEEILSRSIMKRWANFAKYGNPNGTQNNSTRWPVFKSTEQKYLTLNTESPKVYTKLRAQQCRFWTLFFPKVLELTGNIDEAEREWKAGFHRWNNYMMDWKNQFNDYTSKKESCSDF", "UniProt Q8NET8, sequence (whole entry, looked up)": "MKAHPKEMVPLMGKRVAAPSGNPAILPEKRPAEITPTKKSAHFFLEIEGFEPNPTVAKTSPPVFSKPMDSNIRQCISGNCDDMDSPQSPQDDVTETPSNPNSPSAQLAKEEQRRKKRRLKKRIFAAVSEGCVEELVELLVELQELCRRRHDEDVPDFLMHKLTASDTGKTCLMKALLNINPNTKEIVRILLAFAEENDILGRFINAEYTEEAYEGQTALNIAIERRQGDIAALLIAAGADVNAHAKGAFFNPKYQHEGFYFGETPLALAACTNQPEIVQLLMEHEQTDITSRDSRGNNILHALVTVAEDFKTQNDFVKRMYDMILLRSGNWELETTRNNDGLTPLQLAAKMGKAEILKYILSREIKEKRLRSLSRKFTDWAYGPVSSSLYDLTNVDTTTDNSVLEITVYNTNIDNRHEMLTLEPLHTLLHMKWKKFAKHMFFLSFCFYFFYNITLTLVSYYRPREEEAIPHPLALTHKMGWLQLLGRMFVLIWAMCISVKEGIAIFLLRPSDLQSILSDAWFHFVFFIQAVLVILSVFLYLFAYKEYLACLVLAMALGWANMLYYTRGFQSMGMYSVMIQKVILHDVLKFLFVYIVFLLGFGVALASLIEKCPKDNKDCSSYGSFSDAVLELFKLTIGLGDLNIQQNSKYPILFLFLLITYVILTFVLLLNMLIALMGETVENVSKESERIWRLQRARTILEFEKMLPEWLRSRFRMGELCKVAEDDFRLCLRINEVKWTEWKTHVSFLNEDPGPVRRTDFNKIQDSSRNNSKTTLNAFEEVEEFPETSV", "UniProt P39877, sequence (whole entry, looked up)": "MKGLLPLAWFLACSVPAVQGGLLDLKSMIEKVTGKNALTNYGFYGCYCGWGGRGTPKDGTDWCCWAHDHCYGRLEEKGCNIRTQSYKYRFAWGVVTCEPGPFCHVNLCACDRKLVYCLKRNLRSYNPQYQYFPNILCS", "UniProt P22789, sequence (whole entry, looked up)": "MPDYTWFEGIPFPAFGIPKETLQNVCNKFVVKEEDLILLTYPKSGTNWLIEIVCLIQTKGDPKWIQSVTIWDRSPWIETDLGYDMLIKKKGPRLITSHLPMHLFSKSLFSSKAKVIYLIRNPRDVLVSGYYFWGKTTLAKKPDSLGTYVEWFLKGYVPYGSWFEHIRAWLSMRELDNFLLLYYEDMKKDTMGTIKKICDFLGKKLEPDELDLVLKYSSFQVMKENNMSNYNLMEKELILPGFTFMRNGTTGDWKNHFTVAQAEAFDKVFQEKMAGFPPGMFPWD", "UniProt P14416, sequence (whole entry, looked up)": "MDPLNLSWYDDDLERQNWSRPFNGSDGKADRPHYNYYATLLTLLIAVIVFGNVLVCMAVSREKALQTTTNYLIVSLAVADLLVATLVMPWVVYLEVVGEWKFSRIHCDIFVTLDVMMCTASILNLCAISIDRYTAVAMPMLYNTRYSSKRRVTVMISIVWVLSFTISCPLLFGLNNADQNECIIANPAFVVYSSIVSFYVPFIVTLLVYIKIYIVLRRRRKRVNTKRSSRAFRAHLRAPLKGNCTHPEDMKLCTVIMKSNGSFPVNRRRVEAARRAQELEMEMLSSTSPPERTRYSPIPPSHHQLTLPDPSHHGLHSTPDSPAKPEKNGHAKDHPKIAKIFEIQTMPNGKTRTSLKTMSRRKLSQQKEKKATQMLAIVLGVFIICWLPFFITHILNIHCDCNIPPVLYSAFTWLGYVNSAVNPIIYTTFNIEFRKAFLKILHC", "UniProt P22303, sequence (whole entry, looked up)": "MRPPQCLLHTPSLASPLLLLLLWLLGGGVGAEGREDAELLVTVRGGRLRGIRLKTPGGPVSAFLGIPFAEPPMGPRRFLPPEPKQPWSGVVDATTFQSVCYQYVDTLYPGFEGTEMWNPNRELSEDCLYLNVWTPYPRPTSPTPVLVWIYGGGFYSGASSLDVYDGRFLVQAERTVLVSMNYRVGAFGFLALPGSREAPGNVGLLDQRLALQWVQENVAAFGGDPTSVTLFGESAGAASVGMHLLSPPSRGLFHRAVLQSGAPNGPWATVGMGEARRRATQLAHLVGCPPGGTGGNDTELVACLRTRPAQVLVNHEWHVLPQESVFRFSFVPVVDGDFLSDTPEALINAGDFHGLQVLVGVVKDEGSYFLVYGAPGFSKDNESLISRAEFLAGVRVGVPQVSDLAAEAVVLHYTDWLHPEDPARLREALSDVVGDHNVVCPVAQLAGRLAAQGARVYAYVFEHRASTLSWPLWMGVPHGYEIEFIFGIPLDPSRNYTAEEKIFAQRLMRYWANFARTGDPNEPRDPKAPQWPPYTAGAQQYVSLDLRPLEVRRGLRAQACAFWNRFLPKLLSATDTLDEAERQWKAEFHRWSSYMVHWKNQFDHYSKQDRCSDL", "UniProt Q8NEC5, sequence (whole entry, looked up)": "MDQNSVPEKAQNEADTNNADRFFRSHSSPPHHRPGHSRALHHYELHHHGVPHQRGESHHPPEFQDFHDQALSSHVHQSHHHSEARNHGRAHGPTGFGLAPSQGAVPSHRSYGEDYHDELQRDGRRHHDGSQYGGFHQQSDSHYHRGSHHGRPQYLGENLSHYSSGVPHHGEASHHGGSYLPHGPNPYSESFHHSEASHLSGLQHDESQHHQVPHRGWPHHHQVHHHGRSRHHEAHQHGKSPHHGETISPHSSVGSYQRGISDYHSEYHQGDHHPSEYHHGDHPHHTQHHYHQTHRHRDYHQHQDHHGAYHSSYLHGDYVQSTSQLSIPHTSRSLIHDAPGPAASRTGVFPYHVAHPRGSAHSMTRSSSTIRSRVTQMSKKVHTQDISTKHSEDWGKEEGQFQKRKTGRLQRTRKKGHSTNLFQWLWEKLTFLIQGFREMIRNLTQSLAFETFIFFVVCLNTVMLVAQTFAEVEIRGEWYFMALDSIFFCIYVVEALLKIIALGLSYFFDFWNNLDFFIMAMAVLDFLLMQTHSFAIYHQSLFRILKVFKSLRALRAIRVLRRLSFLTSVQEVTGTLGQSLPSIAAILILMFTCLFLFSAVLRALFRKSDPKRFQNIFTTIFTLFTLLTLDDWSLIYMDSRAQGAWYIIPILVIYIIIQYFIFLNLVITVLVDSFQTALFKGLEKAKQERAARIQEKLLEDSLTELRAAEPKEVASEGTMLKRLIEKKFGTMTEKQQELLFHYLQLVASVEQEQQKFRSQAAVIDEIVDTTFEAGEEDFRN", "UniProt O43463, sequence (whole entry, unmodified, looked up)": "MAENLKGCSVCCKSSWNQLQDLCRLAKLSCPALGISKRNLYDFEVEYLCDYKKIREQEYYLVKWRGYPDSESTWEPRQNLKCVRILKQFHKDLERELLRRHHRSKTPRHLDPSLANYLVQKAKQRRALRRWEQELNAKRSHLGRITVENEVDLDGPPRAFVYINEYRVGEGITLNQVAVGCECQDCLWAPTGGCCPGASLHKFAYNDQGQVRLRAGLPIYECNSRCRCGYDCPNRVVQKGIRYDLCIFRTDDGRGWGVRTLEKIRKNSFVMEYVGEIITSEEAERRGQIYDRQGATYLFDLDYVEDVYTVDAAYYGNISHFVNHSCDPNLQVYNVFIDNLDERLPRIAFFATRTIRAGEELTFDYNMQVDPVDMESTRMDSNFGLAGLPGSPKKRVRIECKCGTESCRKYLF", "UniProt P28072, sequence (whole entry, looked up)": "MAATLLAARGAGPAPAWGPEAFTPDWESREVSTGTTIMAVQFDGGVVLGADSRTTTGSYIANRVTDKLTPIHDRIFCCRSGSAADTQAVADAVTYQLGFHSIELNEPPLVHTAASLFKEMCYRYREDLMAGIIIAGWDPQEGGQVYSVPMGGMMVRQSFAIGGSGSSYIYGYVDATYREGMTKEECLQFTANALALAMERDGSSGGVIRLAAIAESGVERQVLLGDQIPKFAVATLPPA", "UniProt P39135, sequence (whole entry, looked up)": "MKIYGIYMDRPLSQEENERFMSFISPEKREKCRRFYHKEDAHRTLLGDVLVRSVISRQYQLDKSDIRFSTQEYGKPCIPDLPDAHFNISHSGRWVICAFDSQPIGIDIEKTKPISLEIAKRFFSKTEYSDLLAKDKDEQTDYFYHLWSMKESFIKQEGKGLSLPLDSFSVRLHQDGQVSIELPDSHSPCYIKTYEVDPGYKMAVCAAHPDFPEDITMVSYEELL", "UniProt Q7RTX7, sequence (whole entry, looked up)": "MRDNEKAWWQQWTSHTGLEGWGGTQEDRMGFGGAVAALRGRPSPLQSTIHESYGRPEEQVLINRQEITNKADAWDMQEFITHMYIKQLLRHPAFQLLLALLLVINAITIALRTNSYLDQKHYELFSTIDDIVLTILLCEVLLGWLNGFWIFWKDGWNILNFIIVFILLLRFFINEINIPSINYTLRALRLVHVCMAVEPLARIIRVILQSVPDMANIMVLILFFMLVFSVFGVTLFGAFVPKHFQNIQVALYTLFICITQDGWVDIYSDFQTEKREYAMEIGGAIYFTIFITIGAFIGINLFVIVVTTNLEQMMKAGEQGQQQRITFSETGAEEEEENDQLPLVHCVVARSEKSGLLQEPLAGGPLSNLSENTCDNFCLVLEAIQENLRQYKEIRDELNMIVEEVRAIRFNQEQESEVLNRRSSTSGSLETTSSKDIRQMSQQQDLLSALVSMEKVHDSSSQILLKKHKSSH"}
{"SMILES": "Oc1c(Cl)cc(-c2ccccc2Cl)cc1Cl", "tested on": "Sulfotransferase 2A6 (Sult2a6, Rattus norvegicus, UniProt P22789)", "assay": "enzyme activity, inhibitor", "conditions": "6 min, 37 °C, together with: DHEA 10 µM", "measurement": "IC50", "value": "160000 nM"}
{"SMILES": "CC[C@@]1(O)C(=O)OCc2c1cc1n(c2=O)Cc2cc3c(CN(C)C)c(O)ccc3nc2-1", "tested on": "ERRα (human)", "assay": "reporter gene, antagonist, luciferase reporter qHTS", "measurement": "IC50", "value": "750 nM"}
{"SMILES": "N.N.[Cl][Pt][Cl]", "tested on": "Alpha-synuclein, oligomers (SNCA, Homo sapiens, UniProt P37840)", "assay": "oligomer-induced calcein release, inhibitor", "system": "DOPG liposomes", "measurement": "IC50", "value": "1050 nM"}
{"SMILES": "CN[C@H]1C(=O)N[C@@H]2Cc3ccc(cc3)Oc3cc4cc(c3O[C@@H]3O[C@H](C(=O)O)[C@@H](O)[C@H](O)[C@H]3NC(=O)CCCCCCCCC(C)C)Oc3ccc(cc3Cl)[C@@H](O)[C@@H]3NC(=O)[C@H](NC(=O)[C@@H]4NC(=O)[C@@H](NC2=O)c2cc(cc(O)c2Cl)Oc2cc1ccc2O)c1ccc(O)c(c1)-c1c(O[C@H]2O[C@H](CO)[C@@H](O)[C@H](O)[C@@H]2O)cc(O)cc1[C@@H](C(=O)NCCCN(C)C)NC3=O", "tested on": "CRISPR-associated endonuclease Cas9/Csn1 (cas9, Streptococcus pyogenes serotype M1, UniProt Q99ZW2)", "assay": "genome editing, inhibitor, PCR genotyping", "system": "Escherichia coli, MG1655", "conditions": "Streptococcus pyogenes Cas9", "measurement": "IC50", "value": "6250 to 12500 nM"}
{"SMILES": "CCCCCCCC(=O)OC[C@H](COP(=O)(O)O[C@@H]1[C@H](O)[C@H](O)[C@@H](OP(=O)(O)O)[C@H](OP(=O)(O)O)[C@H]1O)OC(=O)CCCCCCC", "tested on": "TRPV3 (Homo sapiens, UniProt Q8NET8)", "assay": "channel activity, inhibitor, inside-out patch clamp", "system": "HM1 cells expressing target", "conditions": "holding potential +80 mV, together with: PI-PLC 0.5 U/mL", "measurement": "IC50", "value": "~10000 nM and 10000 nM"}
{"SMILES": "CCc1c(C(=O)C(N)=O)c2c(OCC(=O)O)cccc2n1Cc1ccccc1", "tested on": "PLA2G5 (Homo sapiens, UniProt P39877)", "assay": "enzyme activity, LC-MS mixed micelle, measured: total arachidonic acid released", "conditions": "together with: mixed arachidonoyl phospholipids", "measurement": "IC50", "value": "600 nM"}
{"SMILES": "Cc1ccc(OC(=O)NCCCCCn2ccc3ccc(F)cc32)cn1", "tested on": "Cholinesterase (BCHE, Equus caballus, UniProt P81908)", "assay": "enzyme activity, inhibitor, HPLC", "measurement": "IC50", "value": "360 nM"}
{"SMILES": "O=C(/C=C/c1ccccc1)c1ccc(OCCNC2CCN(Cc3ccc(Cl)c(Cl)c3)CC2)cc1", "tested on": "ACHE (Homo sapiens, UniProt P22303)", "assay": "enzyme activity, inhibitor", "conditions": "pH 8", "measurement": "IC50", "value": "24500 nM"}
{"SMILES": "CC(C)c1cccc(C(C)C)c1S", "tested on": "Hcn1 (Mus musculus, UniProt O88704)", "assay": "channel gating (V1/2 shift), inhibitor, two-electrode voltage clamp", "system": "Xenopus oocytes", "measurement": "IC50", "value": "22200 ± 1800 nM"}
{"SMILES": "O=C1Nc2ccc3ncsc3c2/C1=C/Nc1ccc(S(=O)(=O)Nc2ccccn2)cc1", "tested on": "Putative glycogen synthase kinase (Leishmania major, UniProt Q4QE15, D105E/Y102F)", "assay": "enzyme activity, inhibitor", "conditions": "90 min, 30 °C, together with: ATP 2 µM", "measurement": "IC50", "value": "30 nM"}
{"SMILES": "CC(C)(COP(=O)(O)OP(=O)(O)OC[C@H]1O[C@@H](n2cnc3c(N)ncnc32)[C@H](O)[C@@H]1OP(=O)(O)O)[C@@H](O)C(=O)NCCC(=O)NCCS", "tested on": "sfp (Bacillus subtilis, UniProt P39135)", "assay": "phosphopantetheinylation, inhibitor, fluorescence polarization", "conditions": "45 min, pH 7.6, 10% DMSO, together with: VibB 10 µM", "measurement": "IC50", "value": "7000 nM"}
{"SMILES": "CC(=O)OC[C@H]1O[C@@H]([S-])[C@H](OC(C)=O)[C@@H](OC(C)=O)[C@@H]1OC(C)=O.CCP(CC)CC.[Au+]", "tested on": "Thioredoxin glutathione reductase (Schistosoma mansoni, UniProt Q962Y6)", "assay": "enzyme activity, inhibitor, absorbance", "conditions": "with preincubation", "measurement": "IC50", "value": "20 nM"}
{"SMILES": "CCCCCCCCCCCCC/C=C/[C@@H](O)[C@@H](N)COP(=O)(O)OCC[N+](C)(C)C", "tested on": "RYR1 (Oryctolagus cuniculus, UniProt P11716)", "assay": "[3H]ryanodine binding, radioligand binding", "system": "skeletal SR vesicles", "conditions": "reducing, no calmodulin, together with: 5 mM GSH, 50 µM free Ca2+", "measurement": "IC50", "value": "26100 ± 800 nM"}
{"SMILES": "CN1CC[C@@]2(C)c3cc(OC(=O)Nc4ccccc4)ccc3N(C)[C@@H]12", "tested on": "Cholinesterase (BCHE, Homo sapiens, UniProt P06276)", "assay": "enzyme activity, inhibitor, immobilized enzyme reactor, HPLC-UV", "system": "immobilized recombinant human enzyme", "conditions": "rounded, used for carbamoylation", "measurement": "IC50", "value": "5000 nM"}
{"SMILES": "N#CC[C@H](C1CCCC1)n1cc(-c2ncnc3[nH]ccc23)cn1", "tested on": "SLCO1B1 (Homo sapiens, UniProt Q9Y6L6)", "assay": "transport, inhibitor", "conditions": "10 (unit not given), pre-incubation, together with: estrone-3-sulfate", "measurement": "IC50", "value": "47900 ± 3600 nM"}
{"SMILES": "CCCCCCCCOc1c(Br)cc(C(c2c(O)c3ccccc3oc2=O)c2c(O)c3ccccc3oc2=O)cc1Br", "tested on": "MAL12 (Saccharomyces cerevisiae S288c, UniProt P53341)", "assay": "enzyme activity, inhibitor, absorbance", "conditions": "pH 6.9", "measurement": "IC50", "value": "1210 nM"}
{"SMILES": "C[C@@H]1C[C@H]2[C@@H]3CCC4=CC(=O)C=C[C@]4(C)[C@@]3(Cl)[C@@H](O)C[C@]2(C)[C@@]1(OC(=O)c1ccco1)C(=O)CCl", "tested on": "ABCC1 (Homo sapiens, UniProt P33527)", "assay": "efflux, inhibitor, flow cytometry", "system": "SupT1 cells overexpressing ABCC1", "conditions": "together with: DiIC1(5) 100 nM", "measurement": "IC50", "value": "3900 ± 2200 nM"}
{"SMILES": "O=C(NCCCCCn1ccc2ccc(F)cc21)Oc1ccc(C(=O)O)cc1", "tested on": "Cholinesterase (BCHE, Equus caballus, UniProt P81908)", "assay": "enzyme activity, inhibitor, HPLC", "measurement": "IC50", "value": "970 nM"}
{"SMILES": "CC1=C(C(=O)NC(=O)c2cnccn2)C(c2ccncc2)NC(=O)N1 (stereo not shown)", "tested on": "Cholinesterase (BCHE, Equus caballus, UniProt P81908)", "measurement": "IC50", "value": "3920 ± 10 nM"}
{"SMILES": "COc1cc2c(cc1O)CC[n+]1cc3c(OC)c(OC)ccc3c(C)c1-2", "tested on": "DRD2 (Homo sapiens, UniProt P14416)", "assay": "calcium mobilization, antagonist, FLIPR", "system": "HEK293T with Galpha15", "conditions": "10 min preincubation, D2 receptor, together with: dopamine at EC50", "measurement": "IC50", "value": "520 nM"}
{"SMILES": "O=C1Nc2ccc3ncsc3c2/C1=C/c1cnc[nH]1", "tested on": "STK24 (Homo sapiens, UniProt Q9Y6E0)", "assay": "enzyme activity, inhibitor, radiometric", "measurement": "IC50", "value": "20 nM"}
{"SMILES": "C[C@@]12OC(=O)[C@]1([C@@H](O)[C@@H]1C=CCCC1)NC(=O)[C@@H]2CCCl", "tested on": "PSMB6/PSMB7 (Homo sapiens, UniProt P28072+Q99436)", "assay": "enzyme activity", "measurement": "IC50", "value": "~300 nM"}
{"SMILES": "CC(C)(CO)CNC(=O)c1ccc2c(c1)C(=NNc1ccc(S(N)(=O)=O)cc1)C(=O)N2", "tested on": "ROP18 (Toxoplasma gondii, UniProt Q2PAY2)", "assay": "enzyme activity, inhibitor", "measurement": "IC50", "value": "390 nM"}
{"SMILES": "C#C[C@]1(O)CC[C@H]2[C@@H]3CCC4=CC(=O)CC[C@@H]4[C@H]3CC[C@@]21CC", "tested on": "CatSper channel complex (Homo sapiens, UniProt Q7RTX7+Q86XQ3+Q8NEC5+Q96P56)", "assay": "calcium influx, inhibitor", "system": "human sperm", "conditions": "pH 8.2, together with: 140 mM K+", "measurement": "IC50", "value": "> 10000 nM"}
{"SMILES": "O=C1Nc2ccc3ncsc3c2/C1=C/Nc1ccc(S(=O)(=O)Nc2ccccn2)cc1", "tested on": "GSK3 (Trypanosoma brucei, UniProt Q388M1)", "assay": "enzyme activity, inhibitor", "conditions": "together with: GSM peptide and ATP", "measurement": "IC50", "value": "8 ± 2 nM"}
{"SMILES": "CC[C@H](C)[C@H](NC(=O)[C@H](CC(N)=O)NC(=O)[C@H](Cc1c[nH]cn1)NC(=O)[C@@H](NC(=O)[C@H](CC(C)C)NC(=O)[C@H](CCCNC(=N)N)NC(=O)[C@H](CCSC)NC(=O)[C@H](C)N)[C@@H](C)O)C(=O)N[C@@H](Cc1ccccc1)C(=O)N[C@@H](Cc1ccccc1)C(=O)N[C@@H](CC(N)=O)C(=O)N[C@@H](Cc1ccccc1)C(=O)N[C@@H](Cc1ccccc1)C(=O)N[C@@H](CCCCN)C(=O)N[C@@H](CCCNC(=N)N)C(=O)N[C@@H](CCCNC(=N)N)C(=O)O", "tested on": "histidine kinase ComD (Streptococcus pneumoniae serotype 4, UniProt A0A0H2US84)", "assay": "reporter gene, antagonist", "system": "Streptococcus pneumoniae, TIGR4 comX::lacZ", "conditions": "30 min, 37 °C, together with: CSP2 250 nM", "measurement": "IC50", "value": "> 10000 nM"}
{"SMILES": "CN1C(=O)[C@]23SS[C@@]1(C)C(=O)N2[C@H]1Nc2ccccc2[C@@]1([C@@]12c4ccccc4N[C@@H]1N1C(=O)[C@@]4(C)SS[C@]1(C(=O)N4C)[C@H]2O)[C@@H]3O", "tested on": "SUV39H1 (Homo sapiens, UniProt O43463)", "assay": "enzyme activity, inhibitor, radiometric", "measurement": "IC50", "value": "573 nM"}
{"SMILES": "CN[C@@](C)(C[18F])C(=O)O", "system": "SCID mouse DU-145 xenograft, liver", "conditions": "30 min, post injection", "measurement": "tissue uptake", "value": "8.5 ± 2.1 %ID/g"}
{"note": "A few entries again:"}
{"SMILES": "O=C1Nc2ccc3ncsc3c2/C1=C/c1cnc[nH]1", "tested on": "STK24 (Homo sapiens, UniProt Q9Y6E0)", "assay": "enzyme activity, inhibitor, radiometric", "measurement": "IC50", "value": "20 nM"}
{"SMILES": "C[C@@]12OC(=O)[C@]1([C@@H](O)[C@@H]1C=CCCC1)NC(=O)[C@@H]2CCCl", "tested on": "PSMB6/PSMB7 (Homo sapiens, UniProt P28072+Q99436)", "assay": "enzyme activity", "measurement": "IC50", "value": "~300 nM"}
{"SMILES": "CC(C)(CO)CNC(=O)c1ccc2c(c1)C(=NNc1ccc(S(N)(=O)=O)cc1)C(=O)N2", "tested on": "ROP18 (Toxoplasma gondii, UniProt Q2PAY2)", "assay": "enzyme activity, inhibitor", "measurement": "IC50", "value": "390 nM"}
{"SMILES": "C#C[C@]1(O)CC[C@H]2[C@@H]3CCC4=CC(=O)CC[C@@H]4[C@H]3CC[C@@]21CC", "tested on": "CatSper channel complex (Homo sapiens, UniProt Q7RTX7+Q86XQ3+Q8NEC5+Q96P56)", "assay": "calcium influx, inhibitor", "system": "human sperm", "conditions": "pH 8.2, together with: 140 mM K+", "measurement": "IC50", "value": "> 10000 nM"}
